{"data": "Values quoted from earlier work that unrelated publications cite", "note": "Lines come from different studies, so protocols differ. Several values in a cell are separate wells, animals, samples, runs or records. Numbers after ± are the reported error.", "chain of UniProt P35367 (whole entry, looked up)": "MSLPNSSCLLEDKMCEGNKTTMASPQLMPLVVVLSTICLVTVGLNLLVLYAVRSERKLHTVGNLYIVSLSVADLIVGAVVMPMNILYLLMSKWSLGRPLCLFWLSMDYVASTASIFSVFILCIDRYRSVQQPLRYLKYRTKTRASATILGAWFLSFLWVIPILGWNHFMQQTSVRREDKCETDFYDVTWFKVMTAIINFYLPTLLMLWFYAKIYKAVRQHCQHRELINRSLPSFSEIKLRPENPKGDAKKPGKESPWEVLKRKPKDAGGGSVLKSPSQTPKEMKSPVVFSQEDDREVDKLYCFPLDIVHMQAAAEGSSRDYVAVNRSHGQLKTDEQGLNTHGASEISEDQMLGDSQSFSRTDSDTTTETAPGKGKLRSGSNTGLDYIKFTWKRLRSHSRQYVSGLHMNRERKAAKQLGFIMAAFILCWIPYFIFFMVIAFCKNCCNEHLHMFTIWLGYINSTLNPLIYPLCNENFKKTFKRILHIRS", "chain of UniProt P40337 (whole entry, unmodified, looked up)": "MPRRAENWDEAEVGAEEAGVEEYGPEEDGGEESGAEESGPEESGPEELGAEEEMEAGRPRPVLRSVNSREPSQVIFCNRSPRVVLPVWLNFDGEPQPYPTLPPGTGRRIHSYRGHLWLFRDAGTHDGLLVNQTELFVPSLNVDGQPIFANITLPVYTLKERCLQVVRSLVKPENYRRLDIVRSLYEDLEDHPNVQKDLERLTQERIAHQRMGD"}
{"SMILES": "c1cnc2[nH]cc(C3NCCc4sccc43)c2c1 (stereo not shown)", "target or system": "MRC-5 fibroblasts", "assay": "cytotoxicity", "measurement": "IC50", "value": "> 100 µM"}
{"SMILES": "O=C(O)CN1CCNCCN(CC(=O)O)Cc2cccc(n2)C1", "target or system": "protonation constant", "setting": "0.15 M NaCl", "measurement": "log KH1", "value": 12.2}
{"SMILES": "c1ccc2c(c1)CCNC2c1c[nH]c2cnccc12 (stereo not shown)", "target or system": "MRC-5 fibroblasts", "assay": "cytotoxicity", "measurement": "IC50", "value": "98.8 µM"}
{"SMILES": "Cc1ccc(NC(=O)c2c[nH]c3ccc(Cl)cc3c2=O)cc1", "target or system": "ACP-03", "measurement": "IC50", "value": "1.92 µM"}
{"SMILES": "Cc1sc(-c2ccc(C(F)(F)F)cc2)nc1-c1nn[nH]c1C#N", "test system": "ZDF rat", "setting": "1 mg/kg/day, 6 weeks", "measurement": "HbA1c at end of treatment", "value": "9.58 ± 0.14%"}
{"SMILES": "CNCCN(C)Cc1ccc(-c2ccc(C(F)(F)F)cc2)o1", "target or system": "MCF7", "assay": "cell viability", "measurement": "IC50", "value": "61.1 µM"}
{"SMILES": "O=C1NC2CCCCC2NC1c1c[nH]c2ccccc12 (stereo not shown)", "target or system": "COLO 205", "assay": "cytotoxicity", "measurement": "IC50", "value": "> 100 µM"}
{"SMILES": "O=C1/C(=C\\c2ccc([N+](=O)[O-])cc2)S/C(=N\\c2ccccc2)N1Cc1ccccc1Cl", "target or system": "HepG2", "measurement": "IC50", "value": "75 µM"}
{"SMILES": "Cc1ccc(Cn2cc(CNC3=C(Cl)C(=O)c4cccnc4C3=O)nn2)cc1", "target or system": "KB-VIN", "assay": "cell growth", "measurement": "IC50", "value": "6.81 µM"}
{"SMILES": "O=c1ccc(OCCCN2CCCCC2)nn1-c1ccc(Cl)c(Cl)c1", "target or system": "HRH1 (Homo sapiens, UniProt P35367)", "setting": "1.0 µM", "measurement": "inhibition", "value": "11.9 ± 1.4%"}
{"SMILES": "C#Cc1cccc(Nc2ncnc3cc(OCCOC)c(OCCOC)cc23)c1", "target or system": "C6 rat glioma", "measurement": "IC50", "value": "> 100 µM"}
{"SMILES": "CC(C)c1ccc(NC(=O)Nc2ccc(NC(=O)c3c[nH]c4ccc(Cl)cc4c3=O)cc2)cc1", "target or system": "HepG2", "measurement": "IC50", "value": "1.6 µM"}
{"SMILES": "c1ccc2c3c([nH]c2c1)C(c1c[nH]c2ncccc12)NCC3 (stereo not shown)", "target or system": "COLO 205", "assay": "cytotoxicity", "measurement": "IC50", "value": "50 to 80 µM and 66.8 µM"}
{"SMILES": "NC(=O)c1cn([C@H]2O[C@@H](CO)[C@H](O)[C@@H]2O)c2ccc(Oc3ccccc3)cc2c1=O", "target or system": "K562", "measurement": "IC50", "value": "76.8 µM"}
{"SMILES": "COc1cccc(-c2nnc(Nc3ccccc3C(F)(F)F)s2)c1", "target or system": "MCF7", "measurement": "IC50", "value": "49.6 µM"}
{"SMILES": "CN(C)c1ccc(S(=O)(=O)Oc2cccc(-c3nc(N)c4c(=O)oc5ccccc5c4n3)c2)cc1", "target or system": "CNE-2", "assay": "cell proliferation", "measurement": "IC50", "value": "0.82 µM"}
{"SMILES": "Nc1nc2[nH]c(CCCCCCCC(=O)N[C@@H](CCC(=O)O)C(=O)O)cc2c(=O)[nH]1", "target or system": "CHO PC43-10 (human RFC)", "assay": "cell growth", "measurement": "IC50", "value": "> 1 µM"}
{"SMILES": "COc1ccc(-c2cc(-c3cc4ccccc4oc3=O)nc(Cc3ccc(F)cc3)n2)cc1", "target or system": "A549", "measurement": "IC50", "value": "16.1 µM"}
{"SMILES": "Nc1nc2[nH]c(CCCCc3ccc(C(=O)N[C@@H](CCC(=O)O)C(=O)O)s3)cc2c(=O)[nH]1", "target or system": "CHO PC43-10 (human RFC)", "assay": "cell growth", "measurement": "IC50", "value": "> 1 µM"}
{"SMILES": "COc1ccc(-c2cc(-c3cc4ccccc4oc3=O)nc3nc(C)[nH]c(=O)c23)cc1", "target or system": "MCF7", "measurement": "IC50", "value": "2.42 ± 0.75 µM"}
{"SMILES": "c1ccc2c(C3NCCc4c3[nH]c3ccccc43)c[nH]c2c1 (stereo not shown)", "target or system": "COLO 205", "assay": "cytotoxicity", "measurement": "IC50", "value": "24.7 µM"}
{"SMILES": "Nc1nc2sc(CCCc3ccc(C(=O)N[C@@H](CCC(=O)O)C(=O)O)cc3)cc2c(=O)[nH]1", "target or system": "CHO PC43-10 (human RFC)", "assay": "cell growth", "measurement": "IC50", "value": "> 1 µM"}
{"SMILES": "Cc1ncsc1-c1ccc2c(c1)OCCOCCOC[C@@H](NC(=O)C[C@@H]1N=C(c3ccc(Cl)cc3)c3c(sc(C)c3C)-n3c(C)nnc31)COCCOCCOCC(=O)N[C@@H](C(C)(C)C)C(=O)N1C[C@H](O)C[C@H]1C(=O)NC2", "target or system": "von Hippel-Lindau disease tumor suppressor, with Elongin B/C (VHL, Homo sapiens, UniProt P40337)", "assay": "isothermal titration calorimetry", "setting": "VCB titrated into compound", "measurement": "ΔG", "value": "-10 kcal/mol"}
{"SMILES": "c1ccc2c(c1)CCNC2c1c[nH]c2ccncc12 (stereo not shown)", "target or system": "MRC-5 fibroblasts", "assay": "cytotoxicity", "measurement": "IC50", "value": "> 100 µM"}
{"SMILES": "O=C(C=C(O)C(F)(F)C(F)(F)F)c1ccc(NCC(F)(F)F)nc1", "target or system": "Plasmodium falciparum formate-nitrite transporter", "assay": "binding, FCCS", "test system": "isolated protein", "measurement": "Ki", "value": "0.024 ± 0.006 µM"}
{"SMILES": "O=c1oc2ccccc2cc1-c1cc(-c2ccc(Cl)cc2)nc(Cc2ccc(F)cc2)n1", "target or system": "A549", "measurement": "IC50", "value": "2.15 µM"}
{"SMILES": "FC(F)(F)C(F)(F)c1cc(-c2cccnc2)n[nH]1", "target or system": "Plasmodium falciparum formate-nitrite transporter", "assay": "binding, FCCS", "test system": "isolated protein", "measurement": "Ki", "value": "> 80 µM"}
{"SMILES": "CC1(N(CC(=O)O)CC(=O)O)CN(CC(=O)O)CCN(CC(=O)O)C1", "assay": "pH-potentiometry, item: logK1H", "test system": "0.1 M KCl", "setting": "25 °C", "measurement": "protonation constant (log)", "value": 11.2}
{"SMILES": "CCn1nccc1C1CCCN1S(=O)(=O)c1cc(C)c(C)cc1C (stereo not shown)", "target or system": "human monocytes", "assay": "phagocytosis of anti-D RBCs", "measurement": "IC50", "value": "> 5 µM"}
{"SMILES": "COc1cc2c(cc1OC)C(c1c[nH]c3ccccc13)NCC2 (stereo not shown)", "target or system": "MRC-5 fibroblasts", "assay": "cytotoxicity", "measurement": "IC50", "value": "> 100 µM"}
{"SMILES": "COc1ccc(Nc2nc(Nc3ccc(OCC[18F])cc3)ncc2Br)cc1", "test system": "S180 tumour-bearing mice", "setting": "intravenous, 5 min", "how to read": "baseline: tumour over blood", "measurement": "tumour to tissue ratio", "value": 0.55}
{"SMILES": "c1ccc2c(c1)CCNC2c1c[nH]c2cccnc12 (stereo not shown)", "target or system": "COLO 205", "assay": "cytotoxicity", "measurement": "IC50", "value": "> 100 µM"}
{"SMILES": "Nc1nc2[nH]c(CCCCCCCCC(=O)N[C@@H](CCC(=O)O)C(=O)O)cc2c(=O)[nH]1", "target or system": "CHO RT16 (human FRα)", "assay": "cell growth", "setting": "no added folic acid", "measurement": "IC50", "value": "0.0123 µM"}
{"SMILES": "O=C(O)c1ccc([C@H]2C[C@H]3[C@@H](N2)[C@H](c2cccc(Cl)c2F)[C@]2(C(=O)Nc4cc(Cl)ccc42)N3CC2CC2)cc1", "target or system": "SK-OV-3", "assay": "cell viability, CellTiter-Glo", "measurement": "IC50", "value": "> 25 µM"}
{"note": "A few entries again:"}
{"SMILES": "NC(=O)c1cn([C@H]2O[C@@H](CO)[C@H](O)[C@@H]2O)c2ccc(Oc3ccccc3)cc2c1=O", "target or system": "K562", "measurement": "IC50", "value": "76.8 µM"}
{"SMILES": "O=C1/C(=C\\c2ccc([N+](=O)[O-])cc2)S/C(=N\\c2ccccc2)N1Cc1ccccc1Cl", "target or system": "HepG2", "measurement": "IC50", "value": "75 µM"}
{"SMILES": "CCn1nccc1C1CCCN1S(=O)(=O)c1cc(C)c(C)cc1C (stereo not shown)", "target or system": "human monocytes", "assay": "phagocytosis of anti-D RBCs", "measurement": "IC50", "value": "> 5 µM"}
{"SMILES": "O=c1oc2ccccc2cc1-c1cc(-c2ccc(Cl)cc2)nc(Cc2ccc(F)cc2)n1", "target or system": "A549", "measurement": "IC50", "value": "2.15 µM"}
